Published values from different studies.
Lines come from different studies, so protocols differ. “And” joins repeats or separate records; there may be more than shown. ± marks the error that the study gave. Values after ≈ are worked out from the molar mass of the structure shown.

For `CNCc1ccc(-c2cc(-c3nc(-c4ccc(S(=O)(=O)C(C)C)cc4)cnc3N)on2)cc1`, the inhibition was 1% (CaMKII (rat); inhibitor; 2 µM, added: ATP at Km).
Under “number of kinases bound”, `Cc1nn(CC(F)(F)F)cc1Nc1ncc(C2CC2)c(NCCc2c[nH]cn2)n1` is recorded as 2 (403 human wild-type kinases; scanMAX; PoC below 10).
With `O=C(O)C=Cc1ccc(O)cc1` the inhibition was 78.3% (gasdermin E (human); inhibitor; 100 µM, 2 h).
`[Sr+2]`: activity class “inactive” (PP2C; enzyme activity; concentration not given).
For `CCCCCCCC(=O)c1c(O)cc(O)cc1CC(=O)OCC`, the activation was 0.95 fold (Gal4-VP16; reporter gene, Gal4-VP16 control reporter; 10 µM; baseline: vehicle).
The IC50 of `COC/C(=C/Cc1ccc(OC)cc1)c1ccc(OC)cc1` is reported as 3.21 µg/mL (≈ 10.8 µM) (STAT3; reporter gene, inhibitor; NCI-H460).
For `O=C(NCCCNc1nc(Nc2cccc(NC(=O)N3CCCC3)c2)ncc1C1CC1)C1CCC1`, “number of kinases bound” read 30 (403 human wild-type kinases; scanMAX; PoC below 10).
`[Fe+2]`: activity class “active” (PP2C; enzyme activity; concentration not given).
For `c1coc(-c2n[nH]cc2-c2ccnc3ccccc23)c1`, “log2 fold change” read -0.4 (YAK1 (Candida albicans); kinase binding, MIB/MS competition; Candida albicans lysate; 1 µM; baseline: DMSO).
The activation of `CCN1CCN(c2cc(N3CCN(CC)CC3)nc(NCCNc3ccnc4cc(Cl)ccc34)n2)CC1` is reported as 1.38 ± 0.24 fold (Gal4-VP16; reporter gene, Gal4-VP16 control reporter; 20 µM; baseline: vehicle).
`O=C1COc2ccc(-c3cccc(Cl)c3)cc2N1Cc1noc(C2CCC2)n1` has a selectivity ratio of 1.36 (UVRAG-Beclin1 interaction; NanoBRET; 100 µM; baseline: UVRAG-Beclin1 over ATG14L-Beclin1).
With `O=C(O)/C=C/C=C/C(=O)O` the inhibition was 79.1% (gasdermin E (human); inhibitor; 100 µM, 2 h).
`Cc1nn(CC(F)(F)F)cc1Nc1nccc(NCc2ccc(S(N)(=O)=O)cc2)n1`: “number of kinases bound” 1 (403 human wild-type kinases; scanMAX; PoC below 10).
`Oc1ccccc1-c1n[nH]cc1-c1ccnc2ccccc12` — result for “log2 fold change”: 0.26 (YAK1 (Candida albicans); kinase binding, MIB/MS competition; Candida albicans lysate; 1 µM; baseline: DMSO).
For `NS(=O)(=O)c1ccc(CNc2nc(Nc3cccc(NC(=O)N4CCCC4)c3)ncc2Br)cc1`, “selectivity score S10” read 0.03 (403 human wild-type kinases; scanMAX binding; 1 µM, hit below 10% of control; baseline: hits over kinases tested, direction not given).
`C[C@H]1[C@H](OC(=O)CCC(=O)O)O[C@@H]2O[C@@]3(C)CC[C@H]4[C@H](C)CC[C@@H]1[C@@]24OO3`: IC50 “inactive” (β-hematin formation; detergent-based).
`C=CC(=O)N1[C@H](c2ccc3c(c2)OCO3)c2[nH]c3ccccc3c2C[C@H]1C(=O)NC` has an inhibition of 94% and 91% (PQLC3 Cys135 human; cysteine IA-DTB labelling, covalent inhibitor, MS-ABPP; 22Rv1; 20 µM, 3 h).
`NS(=O)(=O)c1ccc(CNc2nc(Nc3cccc(NC(=O)N4CCCC4)c3)ncc2C2CC2)cc1` — result for “number of kinases bound”: 1 (403 human wild-type kinases; scanMAX; PoC below 10).
`O=C(C#Cc1cn(Cc2ccccc2)c(=O)[nH]c1=O)NCc1ccccc1` — result for “remaining MMP-8 activity”: 96 ± 7% (MMP-8; inhibitor, colorimetric; 20 µM).
`NS(=O)(=O)c1ccc(CNc2nc(Nc3cccc(CN4CCOCC4)c3)ncc2Br)cc1`: “selectivity score S10” 0.047 (403 human wild-type kinases; scanMAX binding; 1 µM, hit below 10% of control; baseline: hits over kinases tested, direction not given).
The inhibition of `Cc1ccc(Nc2nccc(N(C)c3ccc4c(C)n(C)nc4c3)n2)cc1S(N)(=O)=O` is reported as 6% (CaMKII (rat); kinase activity, inhibitor; 0.3 µM).
`CC(Nc1nc(N2CCCC2)nc2ccccc12)c1ccccc1` (stereo not shown) — result for “cells with nuclear reporter”: 98.4% (transportin-1/2; FUS nuclear import, high content imaging; HeLa Kyoto reporter; 15.8 µM, 2 h).
`CCCCCCCC(=O)OC[C@H](COP(=O)(O)O[C@@H]1[C@H](O)[C@H](O)[C@@H](OP(=O)(O)O)[C@H](OP(=O)(O)O)[C@H]1O)OC(=O)CCCCCCC`: “maximal open probability” 0.611 (Kv7.2/Kv7.3(EEE) mutant channel; channel activation, activator, activation curve fit; model 1).
`Cc1nn(CC(F)(F)F)cc1Nc1nccc(NCCc2cnc[nH]2)n1`: “selectivity score S10” 0 (403 human wild-type kinases; scanMAX binding; 1 µM, hit below 10% of control; baseline: hits over kinases tested, direction not given).
`OC[C@H]1O[C@@H]2O[C@H]3[C@H](O)[C@@H](O)[C@@H](O[C@H]4[C@H](O)[C@@H](O)[C@@H](O[C@H]5[C@H](O)[C@@H](O)[C@@H](O[C@H]6[C@H](O)[C@@H](O)[C@@H](O[C@H]7[C@H](O)[C@@H](O)[C@@H](O[C@H]8[C@H](O)[C@@H](O)[C@@H](O[C@H]1[C@H](O)[C@H]2O)O[C@@H]8CO)O[C@@H]7CO)O[C@@H]6CO)O[C@@H]5CO)O[C@@H]4CO)O[C@@H]3CO` has a bioluminescence induction of 781 ± 43 RLU (LuxR; Escherichia coli sensor; 1 µM; higher = stronger induction).
The inhibition of `CN(C(=O)n1cnc(-c2ccc[n+]([O-])c2)c1)C1CCCCC1` is reported as 20.1% (L-type calcium channel; concentration not given, dihydropyridine site).
For `Cc1nn(CC(F)(F)F)cc1Nc1nccc(NCCCNC(=O)C2CCC2)n1`, “selectivity score S10” read 0.002 (403 human wild-type kinases; scanMAX binding; 1 µM, hit below 10% of control; baseline: hits over kinases tested, direction not given).
For `CCCCCCCCC(=O)c1cc(O)c(O)c(O)c1`, the activation was 1.41 fold (Gal4-VP16; reporter gene, Gal4-VP16 control reporter; 10 µM; baseline: vehicle).

For quick reference, copied from above:
With `O=C(O)/C=C/C=C/C(=O)O` the inhibition was 79.1% (gasdermin E (human); inhibitor; 100 µM, 2 h).
For `O=C(NCCCNc1nc(Nc2cccc(NC(=O)N3CCCC3)c2)ncc1C1CC1)C1CCC1`, “number of kinases bound” read 30 (403 human wild-type kinases; scanMAX; PoC below 10).
For `c1coc(-c2n[nH]cc2-c2ccnc3ccccc23)c1`, “log2 fold change” read -0.4 (YAK1 (Candida albicans); kinase binding, MIB/MS competition; Candida albicans lysate; 1 µM; baseline: DMSO).
`Oc1ccccc1-c1n[nH]cc1-c1ccnc2ccccc12` — result for “log2 fold change”: 0.26 (YAK1 (Candida albicans); kinase binding, MIB/MS competition; Candida albicans lysate; 1 µM; baseline: DMSO).
